Experimental data collected from several papers.
Compare with care: the assays were run in different laboratories. ± gives the spread as reported.
Action: inhibitor
KEAP1 Kelch domain: Kelch-like ECH-associated protein 1, Kelch domain (KEAP1, Homo sapiens, UniProt Q14145)
Sequence of UniProt Q14145 (whole entry, looked up): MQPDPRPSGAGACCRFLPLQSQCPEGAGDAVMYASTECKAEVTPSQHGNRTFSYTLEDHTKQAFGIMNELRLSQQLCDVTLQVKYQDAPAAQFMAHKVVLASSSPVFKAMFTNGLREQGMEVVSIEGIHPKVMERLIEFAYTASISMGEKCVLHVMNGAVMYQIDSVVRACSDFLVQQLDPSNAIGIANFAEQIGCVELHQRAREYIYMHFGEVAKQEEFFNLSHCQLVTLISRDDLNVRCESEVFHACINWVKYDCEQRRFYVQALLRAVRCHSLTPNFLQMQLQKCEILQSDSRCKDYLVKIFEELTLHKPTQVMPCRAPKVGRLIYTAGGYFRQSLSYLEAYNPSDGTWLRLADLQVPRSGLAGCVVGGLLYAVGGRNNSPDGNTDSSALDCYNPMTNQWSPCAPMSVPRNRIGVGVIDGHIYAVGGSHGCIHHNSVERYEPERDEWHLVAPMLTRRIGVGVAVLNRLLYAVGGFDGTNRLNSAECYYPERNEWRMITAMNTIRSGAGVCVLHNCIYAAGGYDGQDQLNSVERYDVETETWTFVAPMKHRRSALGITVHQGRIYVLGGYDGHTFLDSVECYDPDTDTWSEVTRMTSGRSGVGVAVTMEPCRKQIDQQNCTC
Sequence of UniProt P50750 (whole entry, looked up): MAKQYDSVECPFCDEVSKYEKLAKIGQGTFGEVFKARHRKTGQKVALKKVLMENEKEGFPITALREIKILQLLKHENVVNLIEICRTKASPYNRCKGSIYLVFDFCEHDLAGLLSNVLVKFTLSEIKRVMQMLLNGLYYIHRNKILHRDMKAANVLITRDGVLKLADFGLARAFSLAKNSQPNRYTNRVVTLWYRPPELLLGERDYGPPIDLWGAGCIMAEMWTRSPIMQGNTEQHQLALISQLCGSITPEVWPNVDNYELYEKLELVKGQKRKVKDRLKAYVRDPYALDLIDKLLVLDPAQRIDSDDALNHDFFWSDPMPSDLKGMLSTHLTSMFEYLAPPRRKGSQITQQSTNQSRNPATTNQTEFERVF
Sequence of UniProt Q04760 (whole entry, looked up): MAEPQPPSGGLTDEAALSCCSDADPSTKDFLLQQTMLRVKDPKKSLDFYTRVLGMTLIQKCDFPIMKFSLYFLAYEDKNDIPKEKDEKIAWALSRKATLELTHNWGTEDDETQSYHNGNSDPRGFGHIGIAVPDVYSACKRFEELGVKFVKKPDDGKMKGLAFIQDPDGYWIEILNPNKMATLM
Sequence of UniProt P28074 (whole entry, looked up): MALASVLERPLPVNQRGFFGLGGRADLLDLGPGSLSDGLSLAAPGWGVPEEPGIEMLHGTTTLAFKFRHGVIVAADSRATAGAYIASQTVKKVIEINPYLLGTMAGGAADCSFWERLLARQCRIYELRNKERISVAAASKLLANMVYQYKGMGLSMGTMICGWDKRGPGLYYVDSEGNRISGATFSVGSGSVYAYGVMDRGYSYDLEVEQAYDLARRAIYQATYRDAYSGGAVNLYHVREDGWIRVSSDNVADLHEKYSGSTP
Sequence of UniProt P70698 (whole entry, looked up): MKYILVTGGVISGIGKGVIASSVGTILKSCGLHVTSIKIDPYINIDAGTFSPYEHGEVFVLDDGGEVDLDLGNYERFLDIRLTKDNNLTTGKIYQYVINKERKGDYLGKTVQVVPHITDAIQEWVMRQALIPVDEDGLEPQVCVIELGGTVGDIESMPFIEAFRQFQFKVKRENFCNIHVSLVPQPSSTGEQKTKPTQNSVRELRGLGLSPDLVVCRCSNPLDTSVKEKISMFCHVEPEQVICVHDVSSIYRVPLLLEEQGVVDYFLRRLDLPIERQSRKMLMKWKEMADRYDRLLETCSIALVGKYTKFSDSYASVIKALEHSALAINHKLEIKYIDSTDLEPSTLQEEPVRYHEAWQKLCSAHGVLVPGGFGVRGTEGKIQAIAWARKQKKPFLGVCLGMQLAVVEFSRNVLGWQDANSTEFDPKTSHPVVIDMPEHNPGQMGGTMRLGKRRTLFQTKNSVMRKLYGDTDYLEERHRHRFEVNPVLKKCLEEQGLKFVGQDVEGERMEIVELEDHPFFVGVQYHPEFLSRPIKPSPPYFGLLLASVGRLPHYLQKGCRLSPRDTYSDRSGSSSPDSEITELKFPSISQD
Sequence of UniProt Q13188 (whole entry, looked up): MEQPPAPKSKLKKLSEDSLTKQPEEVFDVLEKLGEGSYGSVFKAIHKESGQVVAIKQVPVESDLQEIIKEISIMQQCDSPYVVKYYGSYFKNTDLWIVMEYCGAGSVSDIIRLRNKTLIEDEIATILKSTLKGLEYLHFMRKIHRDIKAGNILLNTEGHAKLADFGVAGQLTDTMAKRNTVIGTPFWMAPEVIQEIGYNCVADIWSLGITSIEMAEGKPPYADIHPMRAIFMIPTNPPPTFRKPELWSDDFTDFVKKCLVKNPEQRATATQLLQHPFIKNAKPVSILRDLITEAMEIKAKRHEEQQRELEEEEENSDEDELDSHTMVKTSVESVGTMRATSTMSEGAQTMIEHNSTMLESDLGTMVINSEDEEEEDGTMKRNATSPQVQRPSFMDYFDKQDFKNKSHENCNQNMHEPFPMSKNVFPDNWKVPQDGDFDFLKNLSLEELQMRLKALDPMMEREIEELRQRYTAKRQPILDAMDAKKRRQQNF
Sequence of UniProt P16234 (whole entry, looked up): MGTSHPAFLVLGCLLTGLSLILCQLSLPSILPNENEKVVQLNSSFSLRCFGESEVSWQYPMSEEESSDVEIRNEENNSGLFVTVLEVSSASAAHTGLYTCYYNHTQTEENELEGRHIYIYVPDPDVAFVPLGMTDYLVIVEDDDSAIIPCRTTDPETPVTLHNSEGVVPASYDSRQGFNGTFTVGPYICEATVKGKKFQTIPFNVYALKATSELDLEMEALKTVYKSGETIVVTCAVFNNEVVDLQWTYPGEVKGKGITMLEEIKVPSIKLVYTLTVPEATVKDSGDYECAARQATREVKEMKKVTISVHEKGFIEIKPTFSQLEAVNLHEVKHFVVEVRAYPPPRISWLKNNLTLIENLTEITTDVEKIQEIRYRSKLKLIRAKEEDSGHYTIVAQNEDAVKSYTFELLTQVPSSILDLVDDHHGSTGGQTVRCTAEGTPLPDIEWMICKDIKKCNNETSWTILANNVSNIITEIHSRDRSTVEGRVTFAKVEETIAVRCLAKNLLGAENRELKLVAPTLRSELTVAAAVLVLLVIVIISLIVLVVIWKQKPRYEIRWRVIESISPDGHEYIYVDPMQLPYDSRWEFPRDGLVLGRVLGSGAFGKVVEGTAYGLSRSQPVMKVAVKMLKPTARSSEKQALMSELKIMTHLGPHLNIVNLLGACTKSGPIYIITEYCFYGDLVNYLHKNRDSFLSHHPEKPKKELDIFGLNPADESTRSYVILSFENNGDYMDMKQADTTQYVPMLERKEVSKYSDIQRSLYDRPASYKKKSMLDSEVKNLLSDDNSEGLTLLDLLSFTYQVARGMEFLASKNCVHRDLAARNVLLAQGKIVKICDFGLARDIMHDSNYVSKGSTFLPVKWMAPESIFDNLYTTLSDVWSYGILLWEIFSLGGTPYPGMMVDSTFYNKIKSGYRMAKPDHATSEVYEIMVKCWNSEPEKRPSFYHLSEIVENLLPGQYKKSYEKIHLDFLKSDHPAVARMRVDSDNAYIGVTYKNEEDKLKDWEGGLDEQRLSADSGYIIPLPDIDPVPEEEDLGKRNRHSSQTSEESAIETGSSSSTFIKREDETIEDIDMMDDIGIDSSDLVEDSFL
Sequence of UniProt Q6VAB6 (whole entry, looked up): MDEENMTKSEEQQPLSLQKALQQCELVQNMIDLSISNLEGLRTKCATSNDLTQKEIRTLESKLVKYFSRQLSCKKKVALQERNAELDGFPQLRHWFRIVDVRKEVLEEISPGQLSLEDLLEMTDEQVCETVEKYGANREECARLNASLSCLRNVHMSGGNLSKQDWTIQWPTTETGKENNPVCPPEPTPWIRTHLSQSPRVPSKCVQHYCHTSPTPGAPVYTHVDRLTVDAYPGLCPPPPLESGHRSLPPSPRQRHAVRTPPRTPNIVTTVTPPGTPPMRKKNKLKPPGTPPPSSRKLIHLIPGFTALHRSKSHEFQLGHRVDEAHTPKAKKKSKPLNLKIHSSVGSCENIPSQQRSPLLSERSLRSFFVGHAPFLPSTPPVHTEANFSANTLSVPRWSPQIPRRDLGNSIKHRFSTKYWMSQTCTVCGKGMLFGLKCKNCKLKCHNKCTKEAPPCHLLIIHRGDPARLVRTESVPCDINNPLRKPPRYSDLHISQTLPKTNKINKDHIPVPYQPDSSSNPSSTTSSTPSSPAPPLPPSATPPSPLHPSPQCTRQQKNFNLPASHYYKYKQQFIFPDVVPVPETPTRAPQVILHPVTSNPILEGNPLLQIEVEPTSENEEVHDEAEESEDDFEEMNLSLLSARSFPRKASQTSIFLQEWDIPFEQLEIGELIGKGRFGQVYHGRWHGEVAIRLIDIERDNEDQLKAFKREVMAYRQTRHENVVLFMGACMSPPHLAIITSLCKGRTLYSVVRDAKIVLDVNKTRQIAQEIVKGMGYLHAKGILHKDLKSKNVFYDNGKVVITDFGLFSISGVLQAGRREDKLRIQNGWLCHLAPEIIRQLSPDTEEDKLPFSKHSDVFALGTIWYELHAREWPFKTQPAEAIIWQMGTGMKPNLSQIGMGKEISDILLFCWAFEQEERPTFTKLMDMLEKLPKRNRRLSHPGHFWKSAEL
Sequence of UniProt Q8VHL0 (whole entry, looked up): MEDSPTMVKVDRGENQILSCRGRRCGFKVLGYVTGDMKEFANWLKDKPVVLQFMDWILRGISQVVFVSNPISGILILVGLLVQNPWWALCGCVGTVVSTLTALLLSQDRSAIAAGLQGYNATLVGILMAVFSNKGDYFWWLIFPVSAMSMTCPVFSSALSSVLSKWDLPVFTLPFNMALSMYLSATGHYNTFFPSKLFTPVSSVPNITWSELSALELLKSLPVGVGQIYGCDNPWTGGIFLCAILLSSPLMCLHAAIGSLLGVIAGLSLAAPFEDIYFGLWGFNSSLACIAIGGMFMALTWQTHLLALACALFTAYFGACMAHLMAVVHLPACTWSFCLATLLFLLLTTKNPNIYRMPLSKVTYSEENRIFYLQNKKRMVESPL

O=C(O)C(CO)NCc1cc(Cl)c(OCc2cccc(-c3ccccc3)c2Br)cc1OCc1cccnc1 (centres unmarked)
IC50 (CTLA4/CD86 (Homo sapiens, UniProt P16410+P42081); PD-1/PD-L1 interaction, ELISA): > 10 µM

Cc1cccc2c(=O)c3c(O)cc(OCC(=O)O)cc3oc12
IC50 (Cyclin-dependent kinase 9 (CDK9, Homo sapiens, UniProt P50750); enzyme activity, ATP luminescence): 6.6 µM

C=C(NC(=O)C(=C)NC(=O)c1csc(C2=NC3c4csc(n4)C4NC(=O)c5csc(n5)C(C(C)(O)C(C)O)NC(=O)C5CSC(=N5)C(=CC)NC(=O)C(C(C)O)NC(=O)c5csc(n5)C3(CC2)NC(=O)C(Cc2cnc[nH]2)NC(=O)C(=C)NC(=O)C(C)NC(=O)C(C(C)CC)NC2C=Cc3c(C(C)O)cc(nc3C2O)C(=O)OC4C)n1)C(N)=O (centres unmarked)
IC50 (Proteasome Macropain subunit MB1 (PSMB5, Homo sapiens, UniProt P28074); chymotrypsin-like activity; purified 20S proteasome; 15 min preincubation, 37 °C, added: Suc-Leu-Leu-Val-Tyr-AMC substrate): 0.76 ± 0.15 µM

C#Cc1cccc(Nc2ncnc3cc(OC)c(OCCCN4CCOCC4)cc23)c1
IC50 (Platelet-derived growth factor receptor alpha (PDGFRA, Homo sapiens, UniProt P16234); enzyme activity; 30 min, added: ATP 80.8 µM): 3.45 ± 0.21 µM

COc1ccc(C[C@H](NC(=O)Cc2cccc(Oc3ccccc3)c2)C(=O)N[C@@H](Cc2c[nH]c3ccccc23)C(=O)NCc2ccc(C)cc2)cc1OC
IC50 (Proteasome component C5/PSMB8 (Homo sapiens, UniProt P20618+P28062)): 0.037 µM

N[C@@H](Cc1c[nH]c2ccc(OCc3ccc(-c4ccsc4)cc3)cc12)C(=O)O
IC50 (Large neutral amino acids transporter small subunit 1 (SLC7A5, Homo sapiens, UniProt Q01650); transporter uptake, radiometric): 19 µM

NS(=O)(=O)c1ccc(/N=N/c2cc3ccccc3c(C=O)c2O)cc1
IC50 (Lactoylglutathione lyase (GLO1, Homo sapiens, UniProt Q04760); enzyme activity): 39 µM

CCOc1ccc(S(=O)(=O)Nc2ccc(NS(=O)(=O)c3ccc(OCC)cc3)c3ccccc23)cc1
IC50 (KEAP1 Kelch domain; Keap1-Nrf2 interaction, fluorescence polarization): 3.57 ± 0.34 µM

CCOc1cncc(-c2ccc(NC(=O)C(CC)c3ccnc(NS(=O)(=O)C4CC4)n3)nc2)n1 (centres unmarked)
IC50 (Ctps1 (Mus musculus, UniProt P70698); enzyme activity, mass spectrometry): 0.0267 µM

CS(=O)(=O)CCNCc1ccc(-c2ccc3ncnc(Nc4ccc(OCc5cccc(F)c5)c(Cl)c4)c3c2)o1
IC50 (Kinase suppressor of Ras 2, with MEK1 (KSR2, Homo sapiens, UniProt Q6VAB6); ATP probe binding, ATP-biotin probe competition): > 10 µM

CCOC(=O)c1cc2c(N)c(C(=O)OC)sc2nc1C
IC50 (Urea transporter 1 (Mus musculus, UniProt Q8VHL0); transporter uptake): 2.01 µM

N#Cc1cnc2cc(OCC3CCNCC3)c(F)cc2c1Nc1cc(F)c(OCc2cccc(Cl)n2)cc1Cl
IC50 (Serine/threonine-protein kinase 3 (STK3, Homo sapiens, UniProt Q13188); enzyme activity): 0.214 µM

C[C@H](CCC(=O)NCCS(=O)(=O)O)[C@H]1CC[C@H]2[C@@H]3CC[C@@H]4C[C@H](O)CC[C@]4(C)[C@H]3C[C@H](O)[C@]12C
IC50 (Serine hydroxymethyltransferase, mitochondrial (SHMT2, Homo sapiens, UniProt P34897); serine to glycine conversion; pH 7.5, 1% DMSO, added: L-serine 1 mM, THF 0.2 mM): 15 µM

COc1ccc(S(=O)(=O)Nc2ccc(NS(=O)(=O)c3cnn(C)c3)cc2CCC(=O)O)cc1
IC50 (KEAP1 Kelch domain; Keap1-Nrf2 interaction, fluorescence polarisation): 0.11 µM
